Measured values pooled from the literature.
Numbered parts are unrelated; each lists some results of a single study. Positions count from the first letter of the parent shown.

Series 1
Target: CCNB2, cyclin fold, Cln2 fusion (human)
Method: yeast growth competition, sequencing
Sample: yeast
Setting: weak parent motif
Relative to: not given
Direction: higher = stronger binding
Endpoint: normalised enrichment score
Parent: MASTL docking peptide (human); PMIAKNLMCELDE; partner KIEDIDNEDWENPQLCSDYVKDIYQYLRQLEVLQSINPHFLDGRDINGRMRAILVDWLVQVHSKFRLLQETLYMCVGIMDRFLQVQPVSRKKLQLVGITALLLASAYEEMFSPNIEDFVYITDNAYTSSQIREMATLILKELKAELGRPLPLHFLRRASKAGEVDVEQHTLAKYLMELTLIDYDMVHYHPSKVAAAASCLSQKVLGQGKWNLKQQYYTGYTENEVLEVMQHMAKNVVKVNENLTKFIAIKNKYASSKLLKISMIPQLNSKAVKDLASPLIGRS
PMIAKNQMCELDE [L7Q]: 0.109
PMIAKNLMCEMDE [L11M]: -0.325
PMIAKNKMCELDE [L7K]: 0.46
PMIAKNLICELDE [M8I]: 0.729
PMIAKNLMCELYE [D12Y]: -0.205
PMMAKNLMCELDE [I3M]: -0.325
PMIAKNLMYELDE [C9Y]: 0.867
PMIAKNLMCEADE [L11A]: -0.188
PMIAKPLMCELDE [N6P]: -0.318
PMIAKNLMCELGE [D12G]: 0.546

Series 2
Target: Protein max, full length (MAX, Homo sapiens, UniProt P61244-2, residues 1-151)
Method: protein-binding microarray
Molecule type: double-stranded DNA, one strand shown
Sample: in vitro
Tested at: not given
Setting: k-mer, scored over probes, only values ≥0.25
Direction: higher = stronger binding
Endpoint: E-score
CCCATGCA: 0.365
ATGTTAGA: 0.275
CCACGTGA: 0.496
CCCGTGCA: 0.335
GGTGTGAC: 0.271
ACATGGGT: 0.322
AGCACCTG: 0.32
GTGCGCCA: 0.258

Series 3
Target: Histone acetyltransferase KAT6A, winged helix 1, GST fusion (KAT6A, Homo sapiens, UniProt Q92794, residues 1-85)
Method: protein binding microarray
Molecule type: double-stranded DNA, one strand shown
Sample: in vitro
Tested at: not given
Setting: 8-mer, flanks averaged, mean of 2 arrays, mostly near background
Relative to: not given
Direction: higher = stronger binding
Endpoint: E-score
Construct (chain): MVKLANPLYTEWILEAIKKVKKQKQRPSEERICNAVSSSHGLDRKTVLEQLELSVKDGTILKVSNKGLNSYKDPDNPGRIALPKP
AACCAATT: -0.167
GCGTGCTA: 0.107
CTCGACAA: -0.176
AGTGGATG: -0.151
ATGACGAA: -0.101
ATTTGGAC: -0.131
ACAGGACG: 0.0831
TCAGAAAA: -0.282
AGACTTAA: -0.144
AAAGGGTT: 0.0797
CAGGCTAG: -0.173
GCGAACAC: 0.0774

Other studies, line by line
PhoQ, residues 284 288 289 292 302 303 ASTSDA  fold induction (PhoP, residues 12 14 15 18 19 SYFRT (Escherichia coli, UniProt P23836); Sort-seq, refers to: YFP reporter; E. coli; PhoQ-PhoP variant library, with: 10 µM Mg2+; relative to: high Mg2+ state, higher = stronger signaling): 2.25

Some of these lines once more (series 2):
GGTGTGAC: 0.271
CCCATGCA: 0.365
CCACGTGA: 0.496
CCCGTGCA: 0.335
